Measurements collected from several papers.
Each numbered part is a random draw from the data of one study; scales do not carry over between parts. Substitutions count along the parent as printed.
UniProt Q14164, sequence (whole entry, looked up): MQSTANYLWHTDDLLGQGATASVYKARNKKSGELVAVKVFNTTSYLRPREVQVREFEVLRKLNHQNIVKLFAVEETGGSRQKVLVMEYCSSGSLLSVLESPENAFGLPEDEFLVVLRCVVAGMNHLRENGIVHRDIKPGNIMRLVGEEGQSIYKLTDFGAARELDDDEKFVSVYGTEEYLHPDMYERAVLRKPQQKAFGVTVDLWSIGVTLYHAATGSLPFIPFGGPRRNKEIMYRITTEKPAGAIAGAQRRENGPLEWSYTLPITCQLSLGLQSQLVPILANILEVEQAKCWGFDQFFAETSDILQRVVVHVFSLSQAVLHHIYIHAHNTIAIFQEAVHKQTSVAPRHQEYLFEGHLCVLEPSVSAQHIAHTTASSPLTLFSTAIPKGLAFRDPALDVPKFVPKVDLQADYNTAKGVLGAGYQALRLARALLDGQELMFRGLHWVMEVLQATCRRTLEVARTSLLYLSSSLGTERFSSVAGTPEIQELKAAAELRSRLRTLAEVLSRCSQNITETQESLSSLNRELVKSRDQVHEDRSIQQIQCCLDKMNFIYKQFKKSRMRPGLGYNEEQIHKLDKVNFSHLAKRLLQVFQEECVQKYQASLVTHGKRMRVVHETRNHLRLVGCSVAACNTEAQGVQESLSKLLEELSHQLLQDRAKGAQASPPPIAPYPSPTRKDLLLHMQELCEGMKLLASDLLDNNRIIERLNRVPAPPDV

Set 1
Target: FOSL2, bZIP domain (human)
Technique: DHFR protein complementation
Medium: yeast
Setting: single substitutions, most at no-binding floor
Baseline: wild-type JUN-FOS pair
Reading: higher = stronger binding
Starting sequence: JUN, bZIP domain (human); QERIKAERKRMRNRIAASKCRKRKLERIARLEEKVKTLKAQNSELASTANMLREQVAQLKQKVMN; partner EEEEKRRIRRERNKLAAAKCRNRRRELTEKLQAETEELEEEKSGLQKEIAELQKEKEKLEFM
`A46T` gave a binding fitness of 0.0976 natural log.
`A40M` has a binding fitness of 0.0273 natural log.
`E32R` has a binding fitness of 0.136 natural log.
`N42F` has a binding fitness of -1.01 natural log.
`L45W` has a binding fitness of -1.05 natural log.
The binding fitness of `Q58R` is reported as -0.116 natural log.
The binding fitness of `E32Q` is reported as -0.0442 natural log.
With `K36V` the binding fitness was 0.0831 natural log.

Set 2
Target: RING finger protein unkempt homolog, zinc fingers 1-6, GST-SBP tag (UNK, Homo sapiens, UniProt Q9C0B0, residues 30-357)
Technique: RNA Bind-n-Seq
Molecule type: RNA
Medium: in vitro
Concentration: not given
Setting: RNA with constant flanks, ends assumed
Baseline: input RNA pool
Reading: higher = stronger binding
Construct (chain): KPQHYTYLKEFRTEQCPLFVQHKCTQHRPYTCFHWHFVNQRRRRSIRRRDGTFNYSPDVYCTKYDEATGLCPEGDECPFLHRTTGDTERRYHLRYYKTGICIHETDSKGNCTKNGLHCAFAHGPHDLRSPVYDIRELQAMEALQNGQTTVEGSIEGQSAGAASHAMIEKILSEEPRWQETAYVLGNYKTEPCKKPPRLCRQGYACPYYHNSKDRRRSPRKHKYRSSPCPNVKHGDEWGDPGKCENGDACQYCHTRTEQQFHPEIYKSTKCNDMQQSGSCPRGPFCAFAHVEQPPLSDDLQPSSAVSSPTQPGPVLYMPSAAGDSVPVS
The bound/input enrichment of `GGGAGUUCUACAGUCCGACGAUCAAUUCUGUUGAAGACAGUUGAGAAUUCCUUUGGAGAAAACAGCCCAGCUUGGCGUGGGGUCCGGUUGCUGUUUCAAAUAACUCACAGGCCCAGGUGACAUGGAAUCUUGGAGCAGCCUUGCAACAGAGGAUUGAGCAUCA` is reported as 0.24 ratio.
For `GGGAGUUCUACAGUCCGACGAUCCGGAUCCAUUGCAGUAAAUCCUCAGUCAGGAGCAGGAGAAGCAGCCCUAAGAGAAAGCGUAACCGACCCUGUGCAAGUCAUCAGUCGCAUUCGGUAUGAGUGGUUUGUUUUUAUUUGGAACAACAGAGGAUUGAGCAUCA`, the bound/input enrichment was 0.193 ratio.
`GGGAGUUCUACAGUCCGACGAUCUUAUGGGUGUAAGAGGUUUGCAGGGGUUUGUGGGGAGUACGUGCCCACACAUAUGUACCACCGUCAAUAUCCACGAGCUGGCAGAGCGUCACCGAAACAAGUACCCUGGAUGUACGCCUACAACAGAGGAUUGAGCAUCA` has a bound/input enrichment of 0.127 ratio.
`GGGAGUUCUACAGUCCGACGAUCCCCAUGGAGGCGUCCAGCGAGCCGCCGCUGGAUGCUAAGUCCGAUGUCACCAACCAGCUUGCCGAUUUUCAGUGGAAACUGGGUAUGGCUGUGAGCUCAGACACUUGCAGAUCUCUUAAGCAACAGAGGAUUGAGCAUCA` gave a bound/input enrichment of 0.0939 ratio.
For `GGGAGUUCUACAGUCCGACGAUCUGGCUUCAGGAUGUAGAGGGCCUGCAGGCUGGAGGACGUGUGCCAGUGUUAGACACACUCACCGAACUUGUUACACGAGGCCGAUCUAUCCCCGUACAUCUGAAUUCUUUGCCAAGACUGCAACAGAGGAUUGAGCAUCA`, the bound/input enrichment was 0.113 ratio.
The bound/input enrichment of `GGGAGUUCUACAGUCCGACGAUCCUCCCUCAACCAAUAUAUAGACACAUAGCAUCUUUCCUGUCAGUCUUCAAACUAGUAUUAACCGGCUUAAUAAUUGUUGGCAAGGAUCCUUUUGCUUUCUUUGGCAUGCAAGCUCCUAGCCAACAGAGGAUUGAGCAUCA` is reported as 49.7 ratio.
The bound/input enrichment of `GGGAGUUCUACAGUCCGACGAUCGCAGAUGCUGAGGUUGCCAGGAGGAAAUCAGUCCCAUCAGAGGCUAUGCUUGCAGAGAGCCGUACCAGUUUGCCACCUGUCGCUGAUGAAAGCCCAGUCACUGUAAAACCAGAUAGUCAACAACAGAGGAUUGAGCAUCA` is reported as 0.177 ratio.
For `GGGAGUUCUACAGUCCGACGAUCAUUCCCUCCAAAAUCAUCAGUUUAUCGGUGGUGCCAGGGGGUUGUGGUAUCAAAGAGAAGGUCCGCCCGGGACUUCUGCAAGUAGGGCAGUCUUCAACAUCUGUGGGAGAUAAAGGAAUUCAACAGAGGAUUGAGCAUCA`, the bound/input enrichment was 0.108 ratio.

Set 3
Target: CCNE1, cyclin fold, Cln2 fusion (human)
Technique: yeast growth competition, sequencing
Medium: yeast
Setting: weak parent motif
Baseline: not given
Reading: higher = stronger binding
Starting sequence: PKN2 docking peptide (human); VSAVQKLDFSDTM
For `VSAVQKLDFSDYM [T12Y]`, “normalised enrichment score” read 1.03.
Under “normalised enrichment score”, `TSAVQKLDFSDTM [V1T]` is recorded as 0.825.
For `VAAVQKLDFSDTM [S2A]`, “normalised enrichment score” read 0.851.
`VSAVQKLDFSDTG [M13G]` — result for “normalised enrichment score”: 0.971.
`VEAVQKLDFSDTM [S2E]` — result for “normalised enrichment score”: 0.14.
Under “normalised enrichment score”, `VGAVQKLDFSDTM [S2G]` is recorded as 0.997.
Under “normalised enrichment score”, `VSAVQKLHFSDTM [D8H]` is recorded as 0.429.
`VSAVQKLEFSDTM [D8E]`: “normalised enrichment score” 0.819.

Mixed results
CN(C)C[C@H]1CCn2c(c(C3=C(c4cn(C)c5ccccc45)C(=O)NC3=O)c3ccccc32)C1 gave a remaining activity of 78.8% (Inhibitor of nuclear factor kappa-B kinase subunit epsilon (IKBKE, Homo sapiens, UniProt Q14164); enzyme activity, inhibitor; 0.5 µM; baseline: control).
